Results collected from several papers.
Parts stem from different laboratories: compare values within a part only.

Block 1 — method: universal PBM; molecule type: double-stranded DNA, one strand shown; matrix: in vitro; concentration: not given; direction: higher = stronger binding; quantity: E-score
Target: Sal-like protein 4, full length isoform B (SALL4, Homo sapiens, UniProt Q9UJQ4-2, residues 1-616)
Setting: 8-mer, flanks averaged, mean of replicates
Target sequence (chain): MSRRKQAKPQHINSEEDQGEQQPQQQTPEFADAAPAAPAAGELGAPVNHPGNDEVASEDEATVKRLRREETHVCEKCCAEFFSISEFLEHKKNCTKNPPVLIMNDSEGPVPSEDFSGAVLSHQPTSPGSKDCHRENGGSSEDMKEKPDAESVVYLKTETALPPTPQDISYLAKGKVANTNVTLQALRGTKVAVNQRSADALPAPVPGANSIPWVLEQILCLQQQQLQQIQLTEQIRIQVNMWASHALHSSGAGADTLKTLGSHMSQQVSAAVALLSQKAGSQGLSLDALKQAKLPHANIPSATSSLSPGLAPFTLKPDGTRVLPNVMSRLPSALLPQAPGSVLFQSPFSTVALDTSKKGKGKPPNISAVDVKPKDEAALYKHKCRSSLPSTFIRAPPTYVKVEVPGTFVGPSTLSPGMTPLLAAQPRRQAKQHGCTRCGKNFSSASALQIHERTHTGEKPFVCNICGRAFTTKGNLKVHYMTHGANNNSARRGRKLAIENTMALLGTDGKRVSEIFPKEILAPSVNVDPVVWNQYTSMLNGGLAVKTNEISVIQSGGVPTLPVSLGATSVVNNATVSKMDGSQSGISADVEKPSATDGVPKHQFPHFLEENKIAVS
Sequence = CGCACCTC; value = -0.193
Sequence = CCCGACCA; value = -0.234
Sequence = CTACTTTC; value = 0.0546
Sequence = CATACGCC; value = 0.0485
Sequence = AGCAAGTG; value = -0.0121
Sequence = CAAAAGTA; value = 0.295
Sequence = GCACCTAA; value = -0.051
Sequence = AGAAACGC; value = -0.115

Block 2 — observed: enzyme activity; action: inhibitor; concentration: 20 µM; quantity: inhibition
Target: Replicase polyprotein 1ab, polymerase (rep, Severe acute respiratory syndrome coronavirus 2, UniProt P0DTD1)
SMILES = CC(C)(C)NCC(O)COc1cccc2[nH]c(C#N)cc12 (stereo not drawn); value = 5.22%
SMILES = Cc1[nH]c(=O)c(C#N)cc1-c1ccc2nccn2c1; value = -7.18%
SMILES = O=C(NCc1cccc(O)c1)Nc1nc(-c2ccncc2)cs1; value = -3.11%
SMILES = C[C@H](CCC(=O)O)[C@H]1CC[C@H]2[C@@H]3C(=O)C[C@@H]4CC(=O)CC[C@]4(C)[C@H]3CC(=O)[C@]12C; value = 1.91%
SMILES = O=c1[nH]cnc2c1ncn2[C@H]1CC[C@@H](CO)O1; value = -2.75%
SMILES = NCC(O)c1ccc(O)cc1 (stereo not drawn); value = -6.69%
SMILES = NS(=O)(=O)c1cc(C(=O)O)cc(N2CCCC2)c1Oc1ccccc1; value = 1.64%
SMILES = NC1CCN(c2cccc(Cl)n2)CC1; value = 4.84%
SMILES = C[C@H]1NC(=O)NC1=O; value = 1.56%
SMILES = CC(=O)C1=C(O)[C@@H]2[C@H]3c4c[nH]c5cccc(c45)C[C@H]3C(C)(C)N2C1=O; value = -2.13%
SMILES = COC[C@H]1OC(=O)c2coc3c2[C@@]1(C)C1=C(C3=O)[C@@H]2CCC(=O)[C@@]2(C)C[C@H]1OC(C)=O; value = 0.18%
SMILES = CCCCCNCC(N)=O; value = 2.84%
SMILES = C[C@]12CC[C@H]3[C@@H](CC[C@@]45O[C@@H]4C(O)=C(C#N)C[C@]35C)[C@@H]1CC[C@@H]2O; value = -0.11%
SMILES = O=C(c1ccc(OCCN2CCCCC2)cc1)c1c(-c2ccc(O)cc2)sc2cc(O)ccc12; value = -2.03%
SMILES = COc1nccc(-c2c(-c3ccc(F)cc3)ncn2[C@H]2CC[C@H](O)CC2)n1; value = 3.16%
SMILES = C1COC(NC(C2CC2)C2CC2)=N1; value = -1.43%
SMILES = NS(=O)(=O)c1nn2cc(-c3ccccc3)nc2s1; value = 0.02%
SMILES = CNc1nc(-c2ccc3c(N)n[nH]c3c2)cc(N2C[C@@H](C(=O)NC3CCCCC3)CC[C@H]2C)n1; value = -6.83%
SMILES = CCN(CC)C(=O)N[C@H]1C[C@@H]2c3cccc4[nH]cc(c34)C[C@H]2N(C)C1; value = 3.76%
SMILES = Nc1nc2c(c(=O)[nH]1)NC(CNc1ccc(C(=O)N[C@@H](CCC(=O)O)C(=O)O)cc1)CN2 (stereo partly drawn); value = 9.61%
SMILES = CC(=O)Nc1ccc(OCC(O)CNC(C)C)cc1 (stereo not drawn); value = 3.89%
SMILES = CNC(=O)c1ccc2c(c1)CCO[C@H]2CCN1CCN(c2ccc(C(N)=O)cc2)CC1; value = 11.6%
SMILES = COc1ccc(S(=O)(=O)N2CCCN(S(=O)(=O)c3ccc(OC)c(OC)c3)CC2)cc1OC; value = 1.11%
SMILES = COc1ccc2cccc(CCNC(C)=O)c2c1; value = 9.62%
SMILES = CC(=O)Nc1ccc(OC(C)=O)cc1; value = -3.45%

Block 3 — method: protein-binding microarray; molecule type: double-stranded DNA, one strand shown; matrix: in vitro; concentration: 940 nM top; setting: 60-bp whole probe; with: salmon DNA 0.4 mg/ml; baseline: random background probes; direction: higher = stronger binding; quantity: fitted relative affinity; constant ends, left off below: GCCTAGCAC … GTCTTGATTCGCTTGACGCTGCTG
Target: Interferon regulatory factor 5, full length, phosphomimetic (IRF5, Homo sapiens, UniProt Q13568-2, residues 1-514, S451D/S453D/S456D/S462D)
Sequence = ATATATATATATACAGATATGTGCTAG; value = 0.535 z-score
Sequence = TTAGGGATCCTTATCCTTTAGTGCTAG; value = -0.485 z-score
Sequence = TGAGGACTGCTTATCCTTTAGTGCTAG; value = -0.417 z-score
Sequence = TTAGGTATCGAATATCGGTTAGTGCTA; value = 3.66 z-score
Sequence = TTAGGTTTCGAATTTCGGTTAGTGCTA; value = 7.01 z-score
Sequence = TCACCTCCAGGTTCTCTGACTGTGCTA; value = 0.13 z-score
Sequence = GATGGTTTCGGACTGGGGACGTGCTAG; value = 7.27 z-score
Sequence = CTGCGGTGAGTGCGTTATCGGTGCTAG; value = -0.437 z-score

Block 4 — cell line: HEK-293T; observed: pseudovirus infection; method: FDA-approved drug library screen; organism: VSV pseudotyped with SARS-CoV-2 spike; concentration: 10 µM; time: 16 h; baseline: vehicle-treated; quantity: GFP-positive cells
Structure (SMILES) = Nc1nc(Cl)nc2c1ncn2[C@@H]1O[C@H](CO)[C@@H](O)[C@@H]1F; value = 97.9%
Structure (SMILES) = NS(=O)(=O)Cc1noc2ccccc12; value = 107%
Structure (SMILES) = COC(=O)C1=C(C)NC(C)=C(C(=O)OC(C)C)C1c1cccc2nonc12 (stereo not drawn); value = 64.1%
Structure (SMILES) = CC1(C)S[C@@H]2[C@H](NC(=O)[C@H](C(=O)O)c3ccsc3)C(=O)N2[C@H]1C(=O)O; value = 82.6%

Block 5 — observed: enzyme activity; action: inhibitor; concentration: 20 µM; setting: hit confirmation, with DTT; quantity: inhibition
Target: Replicase polyprotein 1ab, main protease (rep, Severe acute respiratory syndrome coronavirus 2, UniProt P0DTD1)
SMILES = Sc1nnnn1-c1ccccc1; value = 78.4%
SMILES = CC[N+](C)(CC)CCC[n+]1c(-c2ccccc2)c2cc(N)ccc2c2ccc(N)cc21; value = 56%
SMILES = Oc1cc2c(cc1O)CN(C(=S)NCCc1ccc(Cl)cc1)CCC2; value = -8.7%
SMILES = Oc1cc(CNC(=S)/C=C/c2cc(O)c(O)c(Br)c2)cc(O)c1O; value = -4.6%

Block 6 — method: competition protein-binding microarray; molecule type: double-stranded DNA, one strand shown; matrix: in vitro; concentration: 2 µM; with: Pho4 competitor, 0.05 µM; direction: higher = stronger binding; quantity: fluorescence intensity
Target: Centromere-binding protein 1, full length, His-tagged (CBF1, Saccharomyces cerevisiae, UniProt P17106, residues 1-351)
Sequence of UniProt P17106 (whole entry, looked up): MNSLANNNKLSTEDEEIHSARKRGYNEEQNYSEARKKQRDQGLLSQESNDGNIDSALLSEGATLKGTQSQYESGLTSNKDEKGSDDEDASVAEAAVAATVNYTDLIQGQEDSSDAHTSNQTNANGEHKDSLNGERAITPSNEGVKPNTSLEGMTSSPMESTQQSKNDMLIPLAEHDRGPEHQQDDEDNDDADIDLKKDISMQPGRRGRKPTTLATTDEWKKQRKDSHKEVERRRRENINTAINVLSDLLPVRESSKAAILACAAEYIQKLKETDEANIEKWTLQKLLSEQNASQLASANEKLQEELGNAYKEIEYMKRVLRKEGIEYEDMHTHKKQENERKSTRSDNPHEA
Setting: whole 60-bp probe, lowest competitor level
Sequence = TCGATATATAGAAAGCACGATTGCCCAGGAGTTATGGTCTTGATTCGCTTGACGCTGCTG; value = 76 a.u.
Sequence = ACCGCTGAGGCAAGTACCGTGCAAAATGATGTGAGTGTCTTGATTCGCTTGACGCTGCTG; value = 88 a.u.
Sequence = AAATTACTAAGTTGCTTTGTGGGTGACGCCGTATGAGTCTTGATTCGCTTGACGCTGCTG; value = 73.5 a.u.
Sequence = ATATATATATGCGGCTGCGTGCGGATATTCTCCCGGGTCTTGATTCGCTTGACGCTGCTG; value = 124 a.u.
Sequence = TGGCAGCGTAACTGGCACGGCCACATCGGTGGGATTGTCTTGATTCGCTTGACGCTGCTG; value = 55.7 a.u.
Sequence = CTTTCCCGATCTTGATGAGTGGGTGTAGCACATTTGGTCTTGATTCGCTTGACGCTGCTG; value = 67.1 a.u.
Sequence = AGTTACGGTTGCCATCACGTGTCGGTAGGATAAAGTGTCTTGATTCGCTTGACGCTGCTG; value = 3020 a.u.
Sequence = GATAATTCTGTCCTTCACGTGGTCGAAACCGGTTATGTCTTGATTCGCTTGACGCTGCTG; value = 1170 a.u.

Repeated from above (block 6):
Sequence = TGGCAGCGTAACTGGCACGGCCACATCGGTGGGATTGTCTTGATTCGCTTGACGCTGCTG; value = 55.7 a.u.
Sequence = TCGATATATAGAAAGCACGATTGCCCAGGAGTTATGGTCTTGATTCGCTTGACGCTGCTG; value = 76 a.u.
Sequence = GATAATTCTGTCCTTCACGTGGTCGAAACCGGTTATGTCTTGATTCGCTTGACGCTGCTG; value = 1170 a.u.
Sequence = AGTTACGGTTGCCATCACGTGTCGGTAGGATAAAGTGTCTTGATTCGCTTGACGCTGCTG; value = 3020 a.u.
